Experimental data collected from several papers.
Lines come from different studies, so protocols differ.

`C[C@@H](Nc1cc(F)cc(F)c1)c1cc(C(=O)N(C)C)cc2c(=O)cc(N3CCOCC3)oc12` has a Cmax of 982 ng/mL (human, pooled cohorts, plasma; oral, 120 mg twice daily, geometric least-squares mean, together with: abiraterone 1000 mg).
With `O=C(COc1ccc(Cl)cc1)NC12CC(c3nnc([C@H]4C[C@@H](OC(F)(F)F)C4)o3)(C1)C2` the Cmax was 1230 nM (healthy human subjects, plasma; oral, 100 mg, single ascending dose, fasted).
`CC(C)[C@H](N)C(=O)NCCCS(=O)(=O)O` gave a Cmax of 8510 ng/mL (human both sexes, plasma; oral, 256.5 mg once daily, day 1, fasted capsule).
With `COc1cc(N2CCC(N3CCN(C)CC3)CC2)ccc1Nc1ncnc(Nc2ccccc2S(=O)(=O)C(C)C)n1` the Cmax was 96.8 ng/mL (human, dose escalation arm, plasma; oral, 25 mg, day 28, mean).
With `C=CCn1c(=O)c2cnc(Nc3ccc(N4CCN(C)CC4)cc3)nc2n1-c1cccc(C(C)(C)O)n1` the Cmax was 1040 nM (human; oral, 175 mg twice daily, monotherapy lead-in, -5 days; geometric mean).
`CO[C@H]1C[C@@H]2CC[C@@H](C)[C@@](O)(O2)C(=O)C(=O)N2CCCC[C@H]2C(=O)O[C@H]([C@H](C)C[C@@H]2CC[C@@H](OC(=O)NCCOCCOCCOCCOCCOCCOCCOCCOCCC(=O)N3CCc4cc(Cn5nc(-c6ccc7oc(N)nc7c6)c6c(N)ncnc65)ccc4C3)[C@H](OC)C2)C[C@@H](O)[C@H](C)/C=C(\C)[C@@H](O)[C@@H](OC)C(=O)[C@H](C)C[C@H](C)/C=C/C=C/C=C/1C` has a Cmax of 657 ng/mL (human, plasma; intravenous, 16 mg, cycle 1 day 1, arithmetic mean).
`COc1ncc(-c2nc3c(n2C(C)C)[C@H](c2ccc(Cl)cc2)N(c2cc(Cl)cn(C)c2=O)C3=O)c(OC)n1` gave a Cmax of 2600 ng/mL (LC-MS/MS; human, plasma; oral, 350 mg, cycle 2 day 1, high-dose arm).
`CCOc1c([C@H](C)n2nc(C)c3c(N)ncnc32)cc(Cl)c(F)c1[C@@H]1CNC(=O)C1` has a Cmax of 2390 nM (human, B-cell malignancies, plasma; oral, 30 mg, day 15).
For `O=C(O)CCC(=O)O.[2H]C([2H])([2H])Oc1cc(C)c2[nH]ccc2c1CN1CC[C@@H](C2CC2)C[C@H]1c1ccc(C(=O)O)cc1`, the Cmax was 2570 ng/mL (human, plasma; 200 mg once daily, day 1, multiple ascending dose, geometric mean).

Excerpt of the above:
With `C=CCn1c(=O)c2cnc(Nc3ccc(N4CCN(C)CC4)cc3)nc2n1-c1cccc(C(C)(C)O)n1` the Cmax was 1040 nM (human; oral, 175 mg twice daily, monotherapy lead-in, -5 days; geometric mean).
